Results collected from several papers.
Parts stem from different laboratories: compare values within a part only.

Block 1 — method: RNA Bind-n-Seq; molecule type: RNA; sample: in vitro; tested at: 365 nM; relative to: no-protein control; direction: higher = stronger binding; quantity: RBNS enrichment (R)
Target: RNA binding protein fox-1 homolog 2, RRM domain, GST-SBP tag (RBFOX2, Homo sapiens, UniProt O43251-10, residues 100-194)
Notes: natural RNA segment, single round, ends assumed
GGGAGUUCUACAGUCCGACGAUCCAGAUCCAAGCAUAUAAAAAGCCUGUAUAUUUUUUAAAAACACAUCUUAACUCCACGCUUUACGAUAUUAUAAAAGUUGAAUGGUUCCUCUUGGUAAGGAUAUUUGCUUAUGGAAUUCUCGGGUGCCAA: 0.697
GGGAGUUCUACAGUCCGACGAUCCCAAUAAUAAAAAACAAGAAACCAAGUGGGCUGGUAUUCUCUCUAUGCAAAAUGUCUGUUUUAGUUGGAAUGACUGAAAGAAGAACAGCUGUUCCUGUGUUCUUCGUAUAUGGAAUUCUCGGGUGCCAA: 1.13
GGGAGUUCUACAGUCCGACGAUCCCCCUCCACAGUCACUAGAGGGCUCUCUAAUGCUUUCUAAAGGAGCCACCACCUGCUCCGUGGCCACUCCUGUCACCCUGUCUAAUUGCACCAUUCAAGAAGAGCACAGGUGGAAUUCUCGGGUGCCAA: 0.792

Block 2 — method: protein binding microarray; molecule type: double-stranded DNA, one strand shown; sample: in vitro; tested at: not given; relative to: not given; direction: higher = stronger binding; quantity: E-score
Target: Histone acetyltransferase KAT6A, both winged helices, GST fusion (KAT6A, Homo sapiens, UniProt Q92794, residues 1-181)
Notes: 8-mer, flanks averaged, mean of 2 arrays, mostly near background
Target sequence (chain): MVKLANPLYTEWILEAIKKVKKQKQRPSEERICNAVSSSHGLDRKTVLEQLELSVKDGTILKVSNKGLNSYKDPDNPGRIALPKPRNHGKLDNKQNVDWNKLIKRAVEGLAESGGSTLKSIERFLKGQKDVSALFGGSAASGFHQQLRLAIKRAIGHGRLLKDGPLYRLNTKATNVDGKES
CTCTGCTC: -0.263
ATCGTTCC: 0.00181
AAAGTACG: -0.0444

Other studies, line by line
GCCTAGCACGACGATATCAGTTTCGTGACGTGCTAGGTCTTGATTCGCTTGACGCTGCTG
log fluorescence (Interferon regulatory factor 5, full length, phosphomimetic (IRF5, Homo sapiens, UniProt Q13568-2, residues 1-514, K96S/S451D/S453D/S456D/S462D); protein-binding microarray; double-stranded DNA, one strand shown, in vitro; 250 nM, 60-bp whole probe, together with: salmon DNA 0.4 mg/ml; relative to: random background probes, higher = stronger binding): 4.08 z-score

PhoQ, residues 284 288 289 292 302 303 NLALSC
fold induction (PhoP, residues 12 14 15 18 19 TTLRV (Escherichia coli, UniProt P23836); Sort-seq, measured: YFP reporter; E. coli; PhoQ-PhoP variant library, together with: 10 µM Mg2+; relative to: high Mg2+ state, higher = stronger signaling): 5.28

UAAAAU
6-mer enrichment (R) (TAR DNA-binding protein 43, full length, His tag (TARDBP, Homo sapiens, UniProt Q13148, residues 1-414); RNA Bind-n-Seq; RNA, in vitro; 20 nM, 6-mer, flanks averaged, single round, together with: 150 mM LiCl; relative to: input library, higher = stronger binding): 0.946

GCCTAGCACTCACCTGTCCATTCCTTACTGTGCTAGGTCTTGATTCGCTTGACGCTGCTG
fitted relative affinity (Interferon regulatory factor 5, full length, phosphomimetic (IRF5, Homo sapiens, UniProt Q13568-2, residues 1-514, S451D/S453D/S456D/S462D); protein-binding microarray; double-stranded DNA, one strand shown, in vitro; 940 nM top, 60-bp whole probe, together with: salmon DNA 0.4 mg/ml; relative to: random background probes, higher = stronger binding): 1.35 z-score

Repeated from above (block 2):
AAAGTACG: -0.0444
